Experimental data pooled from the literature.
Each line is one published result; not all experiments were run side by side. Several values in a cell are separate wells, animals, samples, runs or records. Numbers after ± are the reported error.
Genome polyprotein NS3 helicase domain: Genome polyprotein, NS3 helicase domain (Hepatitis C virus genotype 1b, UniProt Q9WMX2)
SRC SH3-SH2-kinase domain: Proto-oncogene tyrosine-protein kinase Src, SH3-SH2-kinase domain (SRC, Gallus gallus, UniProt P00523)

`O=C1/C(=C/c2ccc3c(c2)OCCO3)SC(=S)N1[C@@H]1O[C@H](CO)[C@@H](O)[C@H](O)[C@H]1O` gave an IC50 of 7.3 ± 0.13 µM (TOP2A (Homo sapiens, UniProt P11388); enzyme activity).
The IC50 of `O=C(Nc1cccc(C(=O)Nc2ccc(S(=O)(=O)O)c3cc(S(=O)(=O)O)cc(S(=O)(=O)O)c23)c1)Nc1cccc(C(=O)Nc2ccc(S(=O)(=O)O)c3cc(S(=O)(=O)O)cc(S(=O)(=O)O)c23)c1` is reported as 6.3 ± 0.6 µM (Genome polyprotein NS3 helicase domain; DNA binding, fluorescence polarization; together with: Cy5-dT15 DNA 5 nM).
The IC50 of `Cc1ccc2nc(-c3ccc4nc(-c5ccc(N(C)C(=O)c6ccc7ccccc7c6)cc5)sc4c3)sc2c1S(=O)(=O)O` is reported as 14 ± 0.1 µM (Genome polyprotein NS3 helicase domain; helicase activity, inhibitor, molecular beacon helicase).
The IC50 of `Cc1ccccc1-c1cc(N2CCN(C(=O)CCC(=O)O)CC2)ccc1N(C)C(=O)C(C)(C)c1cc(C(F)(F)F)cc(C(F)(F)F)c1` is reported as 0.692 µM (TACR1 (Homo sapiens, UniProt P25103); nuclear ERK activity, antagonist, FRET biosensor; HEK293T; 30 to 90 min preincubation, together with: substance P 10 nM).
With `CC[C@H](C)[C@H](NC(=O)[C@H](CC(=O)O)NC(=O)[C@H](CC(C)C)NC(=O)[C@H](Cc1c[nH]cn1)NC(=O)[C@@H]1CSSC[C@H](N)C(=O)N[C@@H]([C@@H](C)O)C(=O)N[C@H]2CSSC[C@H](NC(=O)[C@H](CCC(=O)O)NC(=O)[C@H](CCCCN)NC(=O)[C@H](CC(=O)O)NC(=O)[C@H](CCCCN)NC(=O)[C@H](Cc3ccc(O)cc3)NC(=O)[C@H]([C@@H](C)O)NC(=O)[C@H](Cc3ccccc3)NC2=O)C(=O)N[C@@H](C(C)C)C(=O)N[C@@H](Cc2ccc(O)cc2)C(=O)N[C@@H](Cc2ccc(O)cc2)C(=O)N1)C(=O)N[C@H](C(=O)N[C@@H](Cc1c[nH]c2ccccc12)C(=O)O)[C@@H](C)CC` the IC50 was over 10 µM (EDNRA (Homo sapiens, UniProt P25101); ligand displacement in cells, radioligand).
`Cc1cc(C)nc(NS(=O)(=O)c2ccc(NC(=O)CCCOc3ccc(C(C)(C)C)cc3)cc2)n1` gave an IC50 of 4.36 µM (CDK1 (Homo sapiens, UniProt P06493); enzyme activity, inhibitor, ADP detection).
`Cc1cc(S(=O)(=O)NCc2nn(-c3ccccc3)nc2C)c(C)s1` has an IC50 of 24 µM (Trypanothione synthetase (Trypanosoma brucei, UniProt Q586P2); enzyme activity, inhibitor).
`NS(=O)(=O)c1ccc(N2N=C(C(F)(F)F)C(O)C2c2ccc(F)cc2F)cc1` (centres unmarked) has an IC50 of over 99.9 µM (Cyclooxygenase-2 (Canis lupus familiaris, UniProt Q8SPQ9); PGE2 formation, inhibitor; dog whole blood; together with: LPS).
`CCC(NC(=O)C(CC(C)C)NC(=O)NCc1ccc(C#N)cc1)C(=O)C(=O)NCc1cc(OC)cc(OC)c1` (centres unmarked) has an IC50 of 0.114 µM (Calpain-2 catalytic subunit (Capn2, Mus musculus, UniProt O08529); enzyme activity, inhibitor; mouse pons-cerebellum membranes; together with: calcium 2 mM).
For `O=c1c2cc3ccccc3cc2[nH]c(=S)n1CCc1ccccc1`, the IC50 was 31.9 µM (Genome polyprotein, protease (Hepatitis C virus genotype 1b, UniProt O92972); enzyme activity, inhibitor, FRET).
The IC50 of `Cc1c(-c2ccc(Cc3ccc(OC(F)(F)F)cc3)cc2)[nH]c2cccc(F)c2c1=O` is reported as 3 µM (DHODH (Homo sapiens, UniProt Q02127); enzyme activity, inhibitor).
`O=[N+]([O-])c1cccc(NC(=S)Nc2ccccc2)c1` has an IC50 of 800 ± 200 µM (Urea transporter 2 (Rattus norvegicus, UniProt Q62668); urea transport, inhibitor; MDCK expressing rat UT-A1; 20 min).
With `O=C1NC(=O)/C(=C/c2ccc(C(=O)NC[C@@H]3C[C@@H](SC(c4ccccc4)(c4ccccc4)c4ccccc4)CN3C(=O)c3ccccc3C(=O)c3ccc(F)cc3F)cc2)S1` the IC50 was 1.3 µM (PLA2G4A (Homo sapiens, UniProt P47712); enzyme activity, LC-MS mixed micelle, item: total arachidonic acid released; together with: mixed arachidonoyl phospholipids).
`CCOc1cc(Cn2cnc3c(N)nc(Cl)nc32)cc(OC(C)C)c1` gave an IC50 of 0.058 µM (PDE8A (Homo sapiens, UniProt O60658); enzyme activity, inhibitor, radiometric).
For `NC(=O)[C@@H]1CCCNC(=O)[C@H](Cc2ccc([N+](=O)[O-])cc2)NC(=O)[C@H](Cc2ccccc2)NC(=O)[C@H](CC2CC2)NC(=O)/C=C/C(=O)N1`, the IC50 was 0.08 ± 0.008 µM (SRC SH3-SH2-kinase domain; enzyme activity, inhibitor, Z'-LYTE FRET; Src residues 83-533, together with: 50 µM ATP).
For `Cc1cc([N+](=O)[O-])cn(CC(=O)c2cc3cc(Cl)ccc3[nH]2)c1=O`, the IC50 was 7.97 ± 0.84 µM (RAD52 (Homo sapiens, UniProt P43351); DNA binding, inhibitor, FRET; 25 °C, together with: Cy3-dT30-Cy5 1 nM).
With `O=C(Cn1nc(C(F)(F)F)c2c1CCCC2)Nc1ccccc1` the IC50 was over 100 µM (Trypanothione synthetase (Trypanosoma brucei, UniProt Q586P2); enzyme activity, inhibitor).
The IC50 of `O=S(=O)(Nc1cscn1)c1c(F)cc(NCc2c(F)ccc(F)c2CN2CCC2)cc1F` is reported as 0.0103 µM and 0.01 µM (SCN8A (Homo sapiens, UniProt Q9UQD0); sodium current, inhibitor, automated patch clamp; inactivated state, Vh -45 mV).
For `C/C(=N\Nc1nc(C)cs1)c1ccc2c(c1)sc1nc(=O)c(C#N)cn12`, the IC50 was 2.83 µM (DNA gyrase (gyrA/gyrB, Escherichia coli, UniProt P0AES4+P0AES6); enzyme activity, inhibitor).
`Cc1cc2occ(CC(=O)N3CCC(C(=O)NCc4ccccc4)CC3)c2cc1C` gave an IC50 of 12 ± 2.6 µM (Trypanothione synthetase (Trypanosoma brucei brucei, UniProt Q586P2); enzyme activity, BIOMOL Green phosphate release; 1 h preincubation).
With `CCOc1cncc(-c2ccc(NC(=O)C3(c4ccnc(NS(=O)(=O)C5CC5)n4)CCOCC3)nc2)n1` the IC50 was 1.33 µM (Ctps2 (Mus musculus, UniProt P70303); enzyme activity, inhibitor, mass spectrometry).
With `Nc1ncnc2c1c(-c1ccc(Oc3ccccc3)cc1)nn2C1CCCC1` the IC50 was under 0.001 µM (Tyrosine-protein kinase HCK, SH3 (HCK, Homo sapiens, UniProt P08631, K245P/K248P); enzyme activity, inhibitor).
The IC50 of `O=C(Nc1cccnc1)c1ccccc1OCc1ccccc1` is reported as 191 µM (Phosphatidylcholine:ceramide cholinephosphotransferase 1 (Homo sapiens, UniProt Q86VZ5); enzyme activity, inhibitor).
With `NC(=O)[C@@H]1CCCNC(=O)[C@H](Cc2ccc(Br)cc2)NC(=O)[C@H](Cc2ccccc2)NC(=O)[C@H](CC2CCCCC2)NC(=O)/C=C/C(=O)N1` the IC50 was 0.03 ± 0.002 µM (SRC SH3-SH2-kinase domain; enzyme activity, inhibitor, Z'-LYTE FRET; Src residues 83-533, together with: 50 µM ATP).
The IC50 of `COCCCN1CCc2c(Cc3ccc(Cl)cc3)[nH]c3c(OC(F)F)ccc(c23)C1=O` is reported as 0.831 µM (PDE11A (Homo sapiens, UniProt Q9HCR9); enzyme activity, inhibitor).
For `O=C(O)c1ccc(Nc2nc(-c3ccc(Cl)c(Cl)c3)cs2)cc1`, the IC50 was 6.75 µM and 6.7 µM (Capsid scaffolding protein, protease domain (Human herpesvirus 8 type P, UniProt Q2HRB6); protease activity, inhibitor; together with: fluorogenic peptide substrate).
The IC50 of `Cn1c(=O)n(CCCO)c(=O)c2c1nc(Oc1cccc(OC(F)(F)F)c1)n2Cc1ccc(C2(C(F)(F)F)N=N2)cc1` is reported as 0.0013 µM (TRPC4/TRPC1 (TRPC1/TRPC4, Homo sapiens, UniProt P48995+Q9UBN4); calcium influx, inhibitor, Fura-2; HEK T-REx expressing TRPC1/TRPC4; together with: englerin A 30 nM).
`NC(=O)[C@@H]1CCCNC(=O)[C@H](Cc2ccc([N+](=O)[O-])cc2)NC(=O)[C@H](Cc2ccco2)NC(=O)[C@H](CC2CC2)NC(=O)/C=C/C(=O)N1` gave an IC50 of 0.25 ± 0.03 µM (SRC SH3-SH2-kinase domain; enzyme activity, inhibitor, Z'-LYTE FRET; Src residues 83-533, together with: 50 µM ATP).
`Cc1oc(-c2ccccc2Cl)nc1Cn1cccc1C1=N[C@@H](c2ccccc2)CO1` gave an IC50 of 8.99 µM (Phosphatidylinositol 3,4,5-trisphosphate 5-phosphatase 1, Ptase-C2 domains (INPP5D, Homo sapiens, UniProt Q92835); enzyme activity, inhibitor).
`CNC(=O)c1ccc(Oc2nc3c(c(=O)n(C)c(=O)n3C)n2CCC(C)C)cc1` has an IC50 of over 57 µM (ALDH1B1 (Homo sapiens, UniProt P30837)).
The IC50 of `CC(C)NCc1ccc(C[C@@H]2NC(=O)[C@@H](Cc3c[nH]c4ccccc34)NC(=O)[C@@H]3CCC(=O)NCCCCCC[C@H](NC(=O)[C@H](Cc4ccc(O)c(I)c4)NC(=O)[C@H]([C@@H](C)O)NC2=O)C(=O)N[C@@H](CO)C(=O)N[C@H](C(=O)O)CSSC[C@H](N)C(=O)N[C@@H](CCCCN)C(=O)N[C@@H](Cc2ccccc2)C(=O)N3)cc1` is reported as over 1 µM (SSTR5 (Homo sapiens, UniProt P35346); ligand displacement, radioligand; cell membranes).
For `CCCCCCCCCOc1c(CCCC(=O)O)cc(-c2ccc(C(=O)O)cc2)cc1CCCC(=O)O`, the IC50 was about 125 µM (PTPN6 (Homo sapiens, UniProt P29350); enzyme activity, inhibitor, fluorescence).

Repeated from above:
For `Cc1cc([N+](=O)[O-])cn(CC(=O)c2cc3cc(Cl)ccc3[nH]2)c1=O`, the IC50 was 7.97 ± 0.84 µM (RAD52 (Homo sapiens, UniProt P43351); DNA binding, inhibitor, FRET; 25 °C, together with: Cy3-dT30-Cy5 1 nM).
With `O=C(Cn1nc(C(F)(F)F)c2c1CCCC2)Nc1ccccc1` the IC50 was over 100 µM (Trypanothione synthetase (Trypanosoma brucei, UniProt Q586P2); enzyme activity, inhibitor).
